# Published values from different studies.
# Each line is one published result; not all experiments were run side by side. Several values in a cell are separate wells, animals, samples, runs or records. Numbers after ± are the reported error.
Compound,tested on,assay,test system,conditions,scale,measurement,result
CN1CC[C@@H](c2c(O)cc(O)c3c(=O)cc(-c4ccc(C(F)(F)F)cc4Cl)oc23)[C@@H]1CO,,refers to: grade 3 rectal abscess,relapsed or refractory haematologic malignancy patients,"oral, dose not given, phase dose escalation, all doses",,patients with adverse event,5%
CNCCC=C1c2ccccc2CCc2ccccc21,Plasmodium falciparum,,7G8,,,IC50,7.94 µM
C[C@]1(CO)Cc2ncn(-c3ccc(C#N)c(Cl)c3)c2C(=O)O1,,investigator-assessed,human,0.7 mg single dose,,subjects with drug-related TEAEs,0%
CC(C)(c1ccccc1)c1cc(-n2nc3ccccc3n2)c(O)c(C(C)(C)c2ccccc2)c1,,exposure assessment,"human, age 21-60 years","concentration not given, spray sunscreen, 95th percentile",,"daily dermal uptake, percentile",58.8 ng/kg body weight/day
Cc1ccc(S(=O)(=O)Nc2c(N[C@H]3CC[C@H](NC(=O)Nc4ccc(F)c(Cl)c4)CC3)c(=O)c2=O)cc1,,,"rat, plasma","intravenous, 10 mg/kg",,volume of distribution,12.3 L
N[C@@H](Cc1ccc(O)c(O)c1)C(=O)O,,,"human, plasma","oral, dose not given, carbidopa/levodopa every 3 h, with: opicapone",baseline: after over before opicapone,fluctuation index ratio,0.68
N.N.O=C([O-])C1(C(=O)[O-])CCC1.[Pt+2],,refers to: unbound platinum,"human, plasma ultrafiltrate","intravenous, AUC 3, median, dose level -2",,Tmax,0.6 h
NCCCS(=O)(=O)O,,,"human, plasma","oral, 265 mg twice daily, steady state week 65",,MRT(0-inf),5.2 h
c1ccc2c(c1)cc1ccc3cccc4ccc2c1c34,,,PDMS-water partitioning,PAH compilation,baseline: maximum over minimum K,literature range factor,11
COc1ccc(-c2c(-c3ccc(C#N)c(F)c3)nc(N3CCC(N)CC3)n(C)c2=O)cc1F,,refers to: Neutropenia,neuroendocrine neoplasm patients,"oral, 60 mg, any grade, dose expansion",,treatment-related adverse event incidence,19%
COc1cc2c(cc1C(F)(F)F)N(C(=O)Nc1cc(F)cc(-c3cccnc3)c1)CC2,Plasmodium falciparum,,3D7,,,IC50,1.58 µM
COc1cccc(Oc2ccccc2NC(=O)CNC(=O)c2cccc3ccccc23)c1,,,"esterase-deficient SCID mice, male","oral, 100 mg/kg/day, 14 days, toxicity study",,serum phosphorus,12.6 mg/dL and 10.9 mg/dL and 10.8 mg/dL
CC(=O)c1c(C)c2cnc(Nc3ccc(C4CCN(CCS(C)(=O)=O)CC4)cn3)nc2n(C2CCCC2)c1=O,,,"human, plasma","oral, 25 mg once daily, day 1, single dose",,elimination rate constant,3.33e-05 s⁻¹
O[C@H]1CCCN[C@@H]1CCCn1cnc2c(Cl)c(Cl)ccc21,,,"healthy CYP2D6 extensive/ultrarapid metabolizers, plasma","oral, dose not given, with: pirfenidone",,AUClast geometric LS mean,0.896 µg·h/mL
C[C@H]1COCCN1c1nc(NCc2cccnc2C(F)(F)F)c2cccnc2n1,,,conscious rat,"intravenous, 10 mg/kg",baseline: control,BP change,-15.6%
CC(C)C[C@@H]1NC(=O)CNC(=O)[C@H](CC(N)=O)NC(=O)[C@H](CCCNC(=N)N)NC(=O)[C@H]([C@@H](C)O)NC(=O)[C@@H]2CSSC[C@@H]3NC(=O)[C@H](CCCCN)NC(=O)CNC(=O)CNC(=O)[C@H](C(C)C)NC(=O)[C@@H]4CSSC[C@H](NC(=O)[C@H]([C@@H](C)O)NC(=O)[C@H](CSSC[C@H](NC(=O)[C@H](C(C)C)NC(=O)[C@@H]5CCCN5C1=O)C(=O)NCC(=O)N[C@@H](CCC(=O)O)C(=O)N[C@@H]([C@@H](C)O)C(=O)N4)NC(=O)CNC(=O)[C@@H]1CCCN1C(=O)[C@H]([C@@H](C)O)NC(=O)[C@H](CC(N)=O)NC3=O)C(=O)N[C@@H](CO)C(=O)N[C@@H](Cc1c[nH]c3ccccc13)C(=O)N1CCC[C@H]1C(=O)N[C@@H](C(C)C)C(=O)N2,,HPLC,ammonium bicarbonate,"180 µM, 14 days, pH 9.0, 25 °C, deamidation stability",,remaining peptide,87.9 ± 0.5%
COc1cc2c(Oc3ccc4[nH]c(C)cc4c3F)ccnc2cc1OCC1(N)CC1,,,paediatric recurrent refractory sarcoma,8 mg,,grade 1 or 2 AST elevation,25%
CCCCCCCCCCCCCCCC(=O)N[C@@H](CCC(=O)NCCCC[C@H](NC(=O)[C@H](CC(=O)O)NC(=O)[C@H](CO)NC(=O)[C@@H](NC(=O)[C@H](Cc1ccccc1)NC(=O)[C@@H](NC(=O)CNC(=O)[C@H](CCC(N)=O)NC(=O)[C@H](CO)NC(=O)[C@@H](N)Cc1c[nH]cn1)[C@@H](C)O)[C@@H](C)O)C(=O)N[C@@H](CO)C(=O)N[C@@H](CCC(=O)O)C(=O)N[C@@H](Cc1ccc(O)cc1)C(=O)N[C@@H](CC(C)C)C(=O)N[C@@H](CC(=O)O)C(=O)N[C@@H](CO)C(=O)N[C@@H](CCC(=O)O)C(=O)N[C@@H](CCCNC(=N)N)C(=O)N[C@@H](C)C(=O)N[C@@H](CCCNC(=N)N)C(=O)N[C@@H](CC(=O)O)C(=O)N[C@@H](Cc1ccccc1)C(=O)N[C@H](C(=O)N[C@@H](C)C(=O)N[C@@H](Cc1c[nH]c2ccccc12)C(=O)N[C@@H](CC(C)C)C(=O)N[C@@H](CCC(=O)O)C(=O)N[C@@H](C)C(=O)NCC(=O)NCC(=O)O)C(C)C)C(=O)O,,refers to: Dyspepsia,humans all renal groups,"subcutaneous, 100 µg single dose",,treatment-related adverse events,2.7%
C=C(CN(C(=O)c1c(C(F)F)nn(C)c1F)C1CC1)c1ccc(Cl)cc1Cl,,static acute toxicity test,zebrafish (Brachydanio rerio),"0.694 mg a.i./L, 72 h",,mortality,0%
CN1CCN(c2ccc(Nc3nccc(-c4ccc(Cl)cc4)n3)cc2C(F)(F)F)CC1,,,zebrafish embryos,"50 µM, 5 d",,toxicity,0%
Clc1ccc(Cl)c(-c2cc(Cl)ccc2Cl)c1,,,"Sprague Dawley rat, spleen","intraperitoneal, 10 mg/kg",,relative organ weight,0.0029 g/g body weight
CC/C(=C(\c1ccccc1)c1ccc(OCCN(C)C)cc1)c1ccccc1,,,"CD-1 mouse, male, plasma","intraperitoneal, 3 mg/kg",,AUC(0-t),0.227 µg·h/mL
N.N.O=C([O-])C1(C(=O)[O-])CCC1.[Pt+2],,"ICP-MS platinum, refers to: platinum","human patients, plasma","dose not given, carboplatin target AUC 4, cycle 1 day 1",,AUC(0-48 h),124 µg·h/mL
CO[C@H]1C[C@@H]2CC[C@@H](C)[C@@](O)(O2)C(=O)C(=O)N2CCCC[C@H]2C(=O)O[C@H]([C@H](C)C[C@@H]2CC[C@@H](OC(=O)NCCOCCOCCOCCOCCOCCOCCOCCOCCC(=O)N3CCc4cc(Cn5nc(-c6ccc7oc(N)nc7c6)c6c(N)ncnc65)ccc4C3)[C@H](OC)C2)C[C@@H](O)[C@H](C)/C=C(\C)[C@@H](O)[C@@H](OC)C(=O)[C@H](C)C[C@H](C)/C=C/C=C/C=C/1C,,,patients with advanced solid tumours,"intravenous, 1.6 mg/3 mg weekly, any grade",,incidence of Rash TRAE,0%
c1ccc2cc3c(cc2c1)-c1cccc2cccc-3c12,,,fresh water,"12 (unit not given), 20 °C, S30-1 sampler, 30 µm",,log K(PDMS-water),5.23 ± 0.05
N.N.[Cl][Pt][Cl],,,mouse xenograft model,"dose not given, day 6, group mean",,body weight,21.6 g
C[C@@H](NC(=O)N1C(=O)[C@H](Cc2ccnc(N)c2)[C@H]1C(=O)O)C1CCCCC1,,,healthy adult Chinese volunteers,"continuous intravenous infusion, 1.5 mg/kg/h, 5-day infusion, CTCAE 5.0 grading",,incidence of urine leukocyte esterase positive,0%
CCN(CCO)CCCC(C)Nc1ccnc2cc(Cl)ccc12 (stereo not drawn),,,newly diagnosed glioblastoma patients,"oral, 400 mg/dose, grade 3, with: radiotherapy and temozolomide",,neutrophil decrease patients,14%
Clc1ccc(-c2ccc(Cl)c(Cl)c2Cl)c(Cl)c1,,,polyethylene-water partitioning,PCB compilation,baseline: maximum over minimum K,literature range factor,1.1
O=C(O)CCCOc1ccc(F)cc1-c1cc(-c2ccccc2C(F)(F)F)n(-c2ccccc2)n1,,refers to: Neutrophils,"Crl:CD(SD) rats, female, blood","iv, 25 µg/kg, 1 day",,leukocyte differential,15.3 ± 3.9%
